Published values gathered from unrelated publications.
Protocols differ between the studies behind these lines. Several values in a cell are separate wells, animals, samples, runs or records.

CO/N=C1\C[C@]2(C[C@@H]3C[C@@H](C/C=C(\C)C[C@@H](C)/C=C/C=C4\CO[C@@H]5[C@H](O)C(C)=C[C@@H](C(=O)O3)[C@]45O)O2)O[C@H](/C(C)=C/C(C)C)[C@H]1C  IC50 (Haemonchus contortus; parasite motility; 24 h, larva): 0.49 µM
Cc1ccn2cc(-c3ccccn3)nc2c1  IC50 (Leishmania infantum; parasite growth; intracellular, amastigote): 20.2 µM and 10.1 µM
Cc1ccc(C(=O)Nc2ccc(S(=O)(=O)O)c3cc(S(=O)(=O)O)cc(S(=O)(=O)O)c23)cc1NC(=O)c1cccc(NC(=O)Nc2cccc(C(=O)Nc3cc(C(=O)Nc4ccc(S(=O)(=O)O)c5cc(S(=O)(=O)O)cc(S(=O)(=O)O)c45)ccc3C)c2)c1  IC50 (Trypanosoma brucei; parasite growth, resazurin; RHODESIENSE, human): ~0.05 µM
Nc1nc2c(ncn2COCCO)c(=O)[nH]1  IC50 (Human alphaherpesvirus 2; viral replication, inhibitor, qPCR; HeLa): 0.12 µM
CC(C)[C@@H]1NC(=O)[C@@H](CCCCN)NC(=O)[C@H]([C@@H](C)O)NC(=O)[C@@H](CCCN)NC(=O)[C@H](Cc2ccccc2)NC(=O)[C@@H](Cc2ccccc2)NC1=O  IC50 (Balamuthia mandrillaris; parasite growth, ATP luminescence; 72 h): ≤ 5 µM
CN(C)c1cc(NC(=O)Cc2ccccc2)c(O)c2c1C[C@H]1C[C@H]3[C@H](N(C)C)C(O)=C(C(N)=O)C(=O)[C@@]3(O)C(O)=C1C2=O  IC50 (Mycobacteroides abscessus; microbial growth, resazurin; ATCC19977): 5.38 µg/mL
CN(C)C(=O)c1ccc(-c2c(-c3ccccn3)nc3n2CCC3)cc1  IC50 (Leishmania infantum; parasite growth; intracellular, amastigote): 29 µM and > 64 µM
CC(C)[C@@H]1NC(=O)[C@@H](CCCNC(=N)N)NC(=O)[C@H]([C@@H](C)O)NC(=O)[C@@H](CCCN)NC(=O)[C@H](Cc2ccccc2)NC(=O)[C@@H](Cc2ccccc2)NC1=O  IC50 (Balamuthia mandrillaris; parasite growth, ATP luminescence; 72 h): ≤ 5 µM
CN(C)[C@@H]1C(O)=C(C(N)=O)C(=O)[C@@]2(O)C(O)=C3C(=O)c4c(O)c(NC(=O)CN5CCCC5)cc(F)c4C[C@H]3C[C@@H]12  IC50 (Mycobacteroides abscessus; microbial growth, resazurin; ATCC19977): < 1 µg/mL
c1ccc(-c2nc3n(c2-c2ccc4cccnc4c2)CCC3)nc1  IC50 (Leishmania infantum; parasite growth; intracellular, amastigote): 6.96 µM and 2.38 µM
CN(C)c1cc(NC(=O)Cc2cnccn2)c(O)c2c1C[C@H]1C[C@H]3[C@H](N(C)C)C(O)=C(C(N)=O)C(=O)[C@@]3(O)C(O)=C1C2=O  IC50 (Mycobacteroides abscessus; microbial growth, resazurin; ATCC19977): 0.75 µg/mL
C[C@@H]1NC(=O)[C@@H](CCCNC(=N)N)NC(=O)[C@H]([C@@H](C)O)NC(=O)[C@@H](CCCN)NC(=O)[C@H](Cc2ccccc2)NC(=O)[C@@H](Cc2ccccc2)NC1=O  IC50 (Balamuthia mandrillaris; parasite growth, ATP luminescence; 72 h): > 20 µM
